{"data": "Results gathered from unrelated publications", "note": "Each line is one published result; not all experiments were run side by side. “And” joins repeats or separate records; there may be more than shown. ± gives the spread as reported."}
{"Molecule": "O=C(Nc1ccc([N+](=O)[O-])cc1Cl)c1cc(Cl)ccc1O", "assay": "shake-flask", "system": "PEG400", "conditions": "37 °C", "measurement": "thermodynamic solubility", "result": "61.7 ± 1.72 mg/g"}
{"Molecule": "Cc1cc(Nc2cc3ncccc3c(N[C@@H]3C[C@H]4CC[C@@H](C3)N4CCC#N)n2)n[nH]1", "system": "dog, female, plasma", "conditions": "oral, 100 mg/kg/day, week 28 day 197, 39-week repeat dose", "how to read": "mean", "measurement": "AUC(0-24 h)", "result": "3140 ng·h/mL"}
{"Molecule": "COc1cc([C@@H]2c3cc4c(cc3[C@@H](O[C@@H]3O[C@@H]5CO[C@@H](C)O[C@H]5[C@H](O)[C@H]3O)[C@H]3COC(=O)[C@H]23)OCO4)cc(OC)c1O", "system": "male Sprague-Dawley rat, plasma", "conditions": "intravenous, 5 mg/kg", "measurement": "clearance", "result": "19.7 mL/min/kg"}
{"Molecule": "Cc1ccc(S(=O)(=O)NC(=O)NN2CC3CCCC3C2)cc1 (centres unmarked)", "assay": "HPLC", "system": "simulated gastric fluid", "conditions": "pH 1, 37 °C", "measurement": "stability time", "result": "6 h"}
{"Molecule": "O=C(c1ccc(OCCN2CCCCC2)cc1)c1c(-c2ccc(O)cc2)sc2cc(O)ccc12", "system": "healthy humans, plasma", "conditions": "oral, 60 mg, added: chronic green tea", "measurement": "AUC(0-96 h)", "result": "0.0098 µM·h"}
{"Molecule": "O=C(CCCN1CCC(O)(c2ccc(Cl)cc2)CC1)c1ccc(F)cc1", "system": "male Hartley guinea pig, anaesthetized", "conditions": "intravenous infusion, 0.1 mg/kg, 10 min infusion", "how to read": "reference: baseline", "measurement": "QTc change", "result": "4.3 ± 1.2%"}
{"Molecule": "C[C@H](Oc1ccc(-c2nc(-c3ccc4[nH]cnc4c3)no2)cc1C(F)(F)F)C(F)(F)F", "system": "cynomolgus monkey, aneurysm model, plasma", "conditions": "0.1 mg/kg once daily, 4 h post-dose, 4 weeks dosing", "measurement": "plasma concentration", "result": "24 ± 5.5 nM"}
{"Molecule": "CC(=O)Oc1ccc(/C=C\\C(=O)Nc2ccc(S(=O)(=O)Nc3ncccn3)cc2)cc1OC(C)=O", "system": "n-octanol/PBS", "conditions": "pH 7.4", "measurement": "log P", "result": "> 0.5"}
{"Molecule": "O=C(O)CCCCC(=O)O", "system": "human hemodialysis patients, plasma", "conditions": "pre-treatment", "how to read": "reference: hemodialysis over normal subjects", "measurement": "total plasma concentration ratio", "result": 13}
{"Molecule": "CC(C)Cc1ccc(C(C)C(=O)O)cc1 (racemic)", "system": "pig, abdominal skin", "conditions": "dose not given, 24 h, pH 7.4, 32 °C, donor 70% ethanol, 0.5 mm dermatomed", "measurement": "cumulative permeated amount", "result": "303 ± 3.63 µg/cm2"}
{"Molecule": "Cc1cc(=O)n(-c2ccccc2)n1C", "system": "perfused human placental cotyledon", "conditions": "531 µM, 10 min, 36.5 °C, maternal to fetal", "measurement": "peak placental transfer", "result": "35%"}
{"Molecule": "NCCCC(=O)O", "assay": "LC-MS", "system": "Sprague-Dawley rat, male, anaesthetised, plasma", "conditions": "intravenous infusion, 50 mg/kg/h", "measurement": "steady-state concentration", "result": "4460 ng/mL and ~4460 ng/mL"}
{"Molecule": "Cn1c(-c2ccc(C(N)=O)cc2F)nnc1C(C)(C)Oc1c(F)cc(Cl)cc1F", "system": "young non-Japanese healthy subjects, plasma", "conditions": "oral, 0.2 mg once daily, 3 mg loading day 1, min-max, last dosing day", "measurement": "apparent volume of distribution Vz/F", "result": "809 to 5850 L"}
{"Molecule": "CNc1nc(Nc2ccc(-n3cnc(C)n3)c(OC)c2)nc2c1CC[C@H]2c1ccc(F)cc1", "system": "human, plasma", "conditions": "oral, 900 mg, single dose, healthy volunteers", "measurement": "AUC(0-inf)", "result": "21400 ng·h/mL"}
{"Molecule": "O=C(CCc1ccccc1)c1ccccc1OCC(O)CN1CCN(C(c2ccccc2)c2ccccc2)CC1 (centres unmarked)", "assay": "metabolic stability", "system": "female mouse, liver microsomes", "conditions": "20 µM, pH 7.4", "measurement": "scaled CLint", "result": "69.7 mL/min/kg"}
{"Molecule": "CCOc1ccc(Cc2cc([C@@H]3S[C@H](CO)[C@@H](O)[C@H](O)[C@H]3O)c(OC)cc2C)cc1", "system": "human", "conditions": "oral, 5 mg/day, day 1, before breakfast", "measurement": "Vd/F", "result": "40.3 ± 6.67 L"}
{"Molecule": "CC(C)NC(=O)[C@H]1CCC[C@H]1Nc1nc(Nc2ccc(C(=O)N(C)C3CCN(C)CC3)cc2)ncc1C(F)(F)F", "system": "advanced solid tumour patients", "conditions": "dose not given", "measurement": "patients with AEs", "result": "15.7%"}
{"Molecule": "O=C(CCCN1CCC(O)(c2ccc(Cl)cc2)CC1)c1ccc(F)cc1", "assay": "shake-flask", "system": "polysorbate 80", "conditions": "37 °C", "measurement": "thermodynamic solubility", "result": "7.06 ± 0.64 mg/g"}
{"Molecule": "CCCC[C@H](NC(C)=O)C(=O)N[C@H]1CCC(=O)NC[C@@H](C(=O)N[C@@H](Cc2c[nH]c3ccccc23)C(N)=O)NC(=O)[C@H](CCCNC(=N)N)NC(=O)[C@@H](Cc2ccccc2)NC(=O)[C@H](Cc2c[nH]cn2)NC1=O", "system": "healthy volunteers, both sexes, plasma", "conditions": "subcutaneous, 1.0 mg once daily, day 1", "measurement": "median AUC(0-t)", "result": "44.9 ng·h/mL"}
{"Molecule": "Cc1cccc(C)c1N(CC(=O)Nc1ccc(-c2ncon2)cc1)C(=O)C1CCS(=O)(=O)CC1", "system": "human", "conditions": "oral, 200 mg", "how to read": "reference: parent AUClast", "measurement": "AUClast excess of radioactivity", "result": "~16%"}
{"Molecule": "Cc1c(Cl)cccc1Nc1ccccc1C(=O)O", "assay": "shake-flask", "system": "Captex 355", "conditions": "37 °C", "measurement": "thermodynamic solubility", "result": "7.24 ± 0.54 mg/g"}
{"Molecule": "COc1cc(/C=C/c2ccc(N)cc2)cc(OC)c1", "system": "rat, serum", "conditions": "oral, 40 mg/kg daily for three days, 24 h", "measurement": "concentration", "result": "210 ± 1 ng/mL"}
{"Molecule": "CCCCCCCCC[C@H](O)CC(=O)CCc1ccc(O)c(OC)c1", "system": "rat, small intestine site 4 contents", "conditions": "oral, dose not given, 2 h, β-glucuronidase treated", "how to read": "reference: ingested amount", "measurement": "recovery", "result": "9.92%"}
{"Molecule": "OCCN(CCO)c1nc(N2CCCCC2)c2nc(N(CCO)CCO)nc(N3CCCCC3)c2n1", "assay": "shake-flask", "system": "polysorbate 80", "conditions": "37 °C", "measurement": "thermodynamic solubility", "result": "8.31 ± 0.37 mg/g"}
{"Molecule": "CCCC[C@H](NC(=O)CN1CCN(CC(=O)O)CCN(CC(=O)O)CCN(CC(=O)O)CC1)C(=O)N[C@H]1CC(=O)NCCCC[C@@H](C(N)=O)NC(=O)[C@H](Cc2c[nH]c3ccccc23)NC(=O)[C@H](CCCNC(=N)N)NC(=O)[C@@H](Cc2ccccc2)NC(=O)[C@H](Cc2c[nH]cn2)NC1=O [indium-111 labelled]", "system": "female C57 mice, B16/F1 melanoma, urine", "conditions": "intravenous, 0.037 MBq, 4 h", "measurement": "excreted dose", "result": "84.6 ± 5.21%"}
{"Molecule": "CNCc1ccc(-c2[nH]c3cc(F)cc4c3c2CCNC4=O)cc1", "system": "human patients, plasma", "conditions": "oral, 840 mg twice daily, day 1, 12 h, arithmetic mean", "measurement": "AUC(0-t)", "result": "13200 ng·h/mL"}
{"Molecule": "C[C@H](CS)C(=O)N1CCC[C@H]1C(=O)O", "system": "male Hartley guinea pig, anaesthetized", "conditions": "intravenous infusion, 30 mg/kg, 10 min infusion", "how to read": "reference: baseline", "measurement": "QTc change", "result": "-6 ± 1.9%"}
{"Molecule": "FMEIET", "assay": "substrate, gel electrophoresis", "system": "peptide, mouse, PyMT tumour, PyMT tumour tissue extract", "conditions": "5 µM, 16 h, 37 °C, 2% extract, 1 mM ZnCl2", "measurement": "peptide cleavage", "result": "< 5%"}
{"Molecule": "CC(=O)c1c(C)c2cnc(Nc3ccc(N4CCNCC4)cn3)nc2n(C2CCCC2)c1=O", "assay": "shake flask", "system": "water", "conditions": "pH 6.5", "measurement": "thermodynamic solubility", "result": "34 µg/mL"}
{"Molecule": "CCOc1nc2cccc(C(=O)O)c2n1Cc1ccc(-c2ccccc2-c2nnn[nH]2)cc1", "assay": "shake-flask", "system": "PEG400", "conditions": "37 °C", "measurement": "thermodynamic solubility", "result": "12.9 ± 1.33 mg/g"}
{"Molecule": "C[C@]12C=CC(=O)C=C1CC[C@@H]1[C@@H]2[C@@H](O)C[C@@]2(C)[C@H]1C[C@H]1O[C@@H](C3CCCCC3)O[C@]12C(=O)CO", "system": "children with asthma", "conditions": "inhaled, ciclesonide 80 µg with spacer vs 160 µg without, steady state, dose normalized", "how to read": "reference: with spacer over without", "measurement": "AUC(tau) ratio", "result": "126%"}
{"Molecule": "CS(=O)(=O)OC[C@H](O)[C@@H]1CO1", "system": "Wistar rat, male, red blood cell lysate", "conditions": "intraperitoneal, 500 mg/kg of treosulfan, 4 h", "measurement": "concentration", "result": "4500 nM"}
{"Molecule": "C[C@H]1Oc2cc(cnc2N)-c2c(nn(C)c2C#N)CN(C)C(=O)c2ccc(F)cc21", "system": "human (NSCLC and healthy)", "conditions": "oral and intravenous, PopPK, 70 kg subject", "measurement": "initial clearance", "result": "151 mL/min"}
{"Molecule": "Cc1cc(Nc2ncc(Cl)c(Nc3ccccc3S(=O)(=O)C(C)C)n2)c(OC(C)C)cc1C1CCNCC1", "assay": "refers to: unbound drug", "system": "patients, plasma", "conditions": "oral, 750 or 450 mg/day, arithmetic mean", "measurement": "AUC(tau) at steady state", "result": "0.307 µM·h"}
{"Molecule": "COc1cnc(C(=O)Nc2ccc(F)c([C@]34CN(c5ncc(F)cn5)C[C@H]3CSC(N)=N4)c2)cn1", "system": "PDAPP mice, brain", "conditions": "oral, 1.0 mg/kg, 3 h", "measurement": "brain concentration", "result": "38.1 nM"}
